Measurements collected from several papers.
Every numbered part comes from another study and shows a few of its results, in no order.

Sample 1
Target: Hepatocyte nuclear factor 3-beta, forkhead domain (FOXA2, Homo sapiens, UniProt Q9Y261, residues 142-269)
Technique: protein-binding microarray
Form: double-stranded DNA, one strand shown
Medium: in vitro
Concentration: not given
Notes: k-mer, scored over probes, only values ≥0.25
Direction: higher = stronger binding
Target sequence (chain): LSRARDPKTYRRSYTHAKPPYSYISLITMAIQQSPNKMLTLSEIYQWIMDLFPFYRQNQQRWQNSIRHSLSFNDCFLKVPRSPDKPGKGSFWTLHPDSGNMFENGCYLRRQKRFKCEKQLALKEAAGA
Sequence	E-score
AATTATGG	0.251
ATATGAAA	0.269
CAGGTAAA	0.279
ATATCGAA	0.264

Sample 2
Target: RNA binding protein fox-1 homolog 2, RRM domain, GST-SBP tag (RBFOX2, Homo sapiens, UniProt O43251-10, residues 100-194)
Technique: RNA Bind-n-Seq
Form: RNA
Medium: in vitro
Concentration: 365 nM
Notes: natural RNA segment, single round, ends assumed
Baseline: no-protein control
Direction: higher = stronger binding
Constant ends, left off below: GGGAGUUCUACAGUCCGACGAUC … UGGAAUUCUCGGGUGCCAA
Residues (chain): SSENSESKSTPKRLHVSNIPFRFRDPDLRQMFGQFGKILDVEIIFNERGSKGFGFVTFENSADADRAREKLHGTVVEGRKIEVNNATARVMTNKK
Sequence	RBNS enrichment (R)
AAAAUUUCUUUUCUCCACCAUGCUUUAUGUGAUAGUAUUUAAAAUUGAUGUGAGUUAUUAUGUCAAAAAAACUGAUCUAUUAAAGAAGUAAUUGGCCUUUCUGAGCUGAU	0.337
UUGCUGCAGAUGGAACAAAUGCCGCCUGGCUUUGUAUUCCCCUUUAGGAUUCUAUUACAUAUGCAAUUUGAGGUCUAACUUGUCCCUUUCCCUGCCAGCCAACCCCCACC	0.51
CCAUCUGGCUGUGCCAUCCUGCAUUUUUAGGAAUGGAAAGCAGGCCUCUGAGGCAGUGGACAGGAAGACUUCUCAUCCUUGAAUUCUAGCUCCCAUUCCAAACUGUUAGU	0.721
CUCCUCCCACCCGGCUGCAGAGGCCAGAGGCCCCCAGCCCAGGGCUCCUGCACUUACUUGCUUAUUUGACAACGUUUCAGCGACUCCGUUGGCCACUCCGAGAGGUGGGC	0.522
AGGAGGGUCAGGGCUGGCCUUCCUCUGUGCAUCACUCUGCUAGGUUGGGGGCCCCCGACCCACCAUACCUACGCCUAGGGAGCCCGUCCUCCAGUAUUCCGUCUGUAGCA	2.43

Sample 3
Target: RING finger protein unkempt homolog, zinc fingers 1-6, SBP tag (UNK, Homo sapiens, UniProt Q9C0B0, residues 30-357)
Sequence of UniProt Q9C0B0 (30-357, looked up): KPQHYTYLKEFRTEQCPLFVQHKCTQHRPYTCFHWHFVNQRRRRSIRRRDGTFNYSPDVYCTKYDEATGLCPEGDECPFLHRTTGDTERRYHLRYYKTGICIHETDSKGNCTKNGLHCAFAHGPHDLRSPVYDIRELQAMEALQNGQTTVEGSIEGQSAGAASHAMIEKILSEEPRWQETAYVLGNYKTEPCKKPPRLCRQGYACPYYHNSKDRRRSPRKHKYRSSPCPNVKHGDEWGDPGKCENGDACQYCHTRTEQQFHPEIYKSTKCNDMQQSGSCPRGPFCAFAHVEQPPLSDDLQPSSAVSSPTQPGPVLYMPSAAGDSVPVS
Technique: RNA Bind-n-Seq
Form: RNA
Medium: in vitro
Concentration: 100 nM
Notes: RNA with constant flanks, vertebrate orthologous sites, ends assumed
Baseline: input RNA pool
Direction: higher = stronger binding
Sequence	bound/input enrichment
GGGAGUUCUACAGUCCGACGAUCGGGACGCUUUGACGUGAAAAUUGAAGUUAAGAGCUGAUCACAAGCACAAAUCUUUCCCAUUAGCCAUUUAAAAAGUUAAAAAAAGAUACAAAAACAAAAAACCUACUAGUCUUGAACAAACAACAGAGGAUUGAGCAUCA	1.67 ratio
GGGAGUUCUACAGUCCGACGAUCGUUGUGAUCCCUUUAAUAUACACAAAAAAUUUUCAAGGAAAAACUUGCAUGUAAUUGACAUAAAUGAUGCUACUUUUCUAAGUGCCAAGUUUGGACGGCAGUUUAUACCUGGCUGGAAGCCAACAGAGGAUUGAGCAUCA	0.634 ratio
GGGAGUUCUACAGUCCGACGAUCGGGACGUUUUGAUGUAAAAAUUGAAGUUAAGAGCUGAUCACAAGCACAAAUCUUUCCCACUAGCCAUUUAAUAAGUUAAAAAGAUACAGAAACAAAAACCUACUAGUCUUGAACAAACUGCAACAGAGGAUUGAGCAUCA	1.8 ratio

Single results of other studies
Substance	target	assay	system	conditions	how to read	measurement	result
PhoQ, residues 284 288 289 292 302 303 SLANIV	PhoP, residues 12 14 15 18 19 DLLYY (Escherichia coli, UniProt P23836)	Sort-seq, refers to: YFP reporter	E. coli	PhoQ-PhoP variant library, together with: 10 µM Mg2+	baseline: high Mg2+ state, higher = stronger signaling	fold induction	1.31
